Results of several laboratories.
± gives the spread as reported.
UniProt Q9NPD5, sequence (whole entry, unmodified, looked up): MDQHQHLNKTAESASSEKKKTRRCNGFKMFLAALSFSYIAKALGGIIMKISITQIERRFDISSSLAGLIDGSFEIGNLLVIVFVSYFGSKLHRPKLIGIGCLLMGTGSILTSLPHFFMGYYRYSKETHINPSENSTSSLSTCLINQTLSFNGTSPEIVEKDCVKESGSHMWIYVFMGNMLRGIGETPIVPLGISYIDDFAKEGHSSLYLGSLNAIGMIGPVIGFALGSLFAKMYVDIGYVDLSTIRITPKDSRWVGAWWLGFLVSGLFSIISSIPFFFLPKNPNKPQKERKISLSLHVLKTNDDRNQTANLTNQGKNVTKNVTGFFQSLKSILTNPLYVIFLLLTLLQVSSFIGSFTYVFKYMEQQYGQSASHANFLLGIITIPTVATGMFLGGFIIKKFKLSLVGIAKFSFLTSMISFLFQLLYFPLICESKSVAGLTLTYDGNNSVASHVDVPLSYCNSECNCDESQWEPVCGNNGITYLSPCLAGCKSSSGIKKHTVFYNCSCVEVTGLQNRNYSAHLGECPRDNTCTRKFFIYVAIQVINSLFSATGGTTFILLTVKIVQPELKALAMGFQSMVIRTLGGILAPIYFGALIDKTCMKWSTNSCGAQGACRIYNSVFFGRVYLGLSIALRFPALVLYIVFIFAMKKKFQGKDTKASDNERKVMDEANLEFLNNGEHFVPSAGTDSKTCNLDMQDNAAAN
UniProt P08684, sequence (whole entry, looked up): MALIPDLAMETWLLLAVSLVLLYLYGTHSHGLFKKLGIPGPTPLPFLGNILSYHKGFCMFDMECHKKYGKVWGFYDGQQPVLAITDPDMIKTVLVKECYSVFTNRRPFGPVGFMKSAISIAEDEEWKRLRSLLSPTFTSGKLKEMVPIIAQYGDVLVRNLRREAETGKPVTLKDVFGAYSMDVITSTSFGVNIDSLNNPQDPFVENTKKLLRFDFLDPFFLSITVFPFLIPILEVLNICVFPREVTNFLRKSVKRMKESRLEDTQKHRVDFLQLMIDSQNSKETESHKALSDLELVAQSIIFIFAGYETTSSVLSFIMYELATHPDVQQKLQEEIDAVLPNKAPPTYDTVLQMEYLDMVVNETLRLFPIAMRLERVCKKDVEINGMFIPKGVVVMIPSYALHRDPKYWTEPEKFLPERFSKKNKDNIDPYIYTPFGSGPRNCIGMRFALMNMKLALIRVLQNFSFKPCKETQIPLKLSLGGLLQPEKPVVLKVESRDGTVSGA
UniProt P11712, sequence (whole entry, looked up): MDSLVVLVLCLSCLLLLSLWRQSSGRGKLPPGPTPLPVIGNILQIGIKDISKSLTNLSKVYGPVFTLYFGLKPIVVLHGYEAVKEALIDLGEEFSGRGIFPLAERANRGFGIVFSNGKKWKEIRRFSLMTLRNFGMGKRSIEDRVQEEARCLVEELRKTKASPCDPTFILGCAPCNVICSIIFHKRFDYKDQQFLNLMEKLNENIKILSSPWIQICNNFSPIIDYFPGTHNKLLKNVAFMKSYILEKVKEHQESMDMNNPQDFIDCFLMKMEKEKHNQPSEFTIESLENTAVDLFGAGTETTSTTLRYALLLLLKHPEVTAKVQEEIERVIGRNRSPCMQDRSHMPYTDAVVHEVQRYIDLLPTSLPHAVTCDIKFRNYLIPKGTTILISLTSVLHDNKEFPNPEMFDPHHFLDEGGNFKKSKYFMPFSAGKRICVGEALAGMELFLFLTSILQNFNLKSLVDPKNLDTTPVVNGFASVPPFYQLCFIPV

`Cc1cc(Nc2ccc(S(F)(F)(F)(F)F)cc2)n2nc(C(C)(F)F)nc2n1` — result for “patients with blood or lymphatic AEs”: 20% (Plasmodium vivax; human Plasmodium vivax malaria patients; oral, 400 mg).
`Cc1cccc(CNC(=O)c2cn(CCNC(=O)c3ccccc3Sc3c([N+](=O)[O-])ncn3C)c3cc4c(cc3c2=O)OC(F)(F)O4)n1` gave a TC50 of greater than 100 µM (CEM-SS; cell viability, XTT; 6 days, RPMI with 10% FBS, added: glutathione 1 mM).
`COc1cccc(-c2cccc(Nc3nccc(NC4CCCCC4)n3)c2)c1` gave a Papp (B-A) of 0.94 ± 0.42 nm/s (P-glycoprotein (human MDR1); MDR1-MDCKII; 10 µM, 1 h, pH 7.4).
With `COc1cc2c(cc1OC)[C@@H]1C(=O)c3ccc4c(c3O[C@@H]1CO2)C=CC(C)(C)O4` the selectivity index was 250 (human adenovirus C5; viral progeny production, reporter virus; A549; reference: CC50 over EC50).
Under “patients with adverse event”, `CNC(=O)c1ccc(-c2cnc3ncc(Cc4ccc5ncccc5c4)n3n2)cc1F` is recorded as 0% (refers to: Hypoalbuminemia, all grades; gastric cancer patients; oral, 600 mg twice daily, expansion cohort, any causality).
`CCCC(=O)OCSc1ccccc1C(=O)NCCn1cc(C(=O)NN2CCN(C)CC2)c(=O)c2cc3c(cc21)OCO3` gave a TC50 of greater than 100 µM (CEM-SS; cell viability, XTT; RPMI with 10% FBS; 6 days).
With `N#Cc1ccc2c(c1)[C@H]1CCCN(C(=O)c3ccc4[nH]cnc4c3)[C@H]1C2` the androstenedione level was 7 nmol/L (human, male; 160 mg, end of trial).
For `O=C1OC(C(O)CO)C(=O)C1=O` (stereo not drawn), “log2 fold change” read -0.192 (binding, MIDAS equilibrium dialysis LC-MS; A2AR-BRIL thermostabilized; concentration not given; reference: no-protein control).
`CCCC(=O)OCSc1ccccc1C(=O)NCCn1cc(C(=O)OCC)c(=O)c2cc3c(cc21)OCO3` has a TC50 of 18.8 ± 0.8 µM (CEM-SS; cell viability, XTT; RPMI with 10% FBS; 6 days).
`CCc1cc(C(=O)NC)c2nccc(N3CCc4c(cc(Cn5ccnc5)cc4-c4cn(C)nc4C(F)(F)F)C3=O)c2c1`: “reticulocyte percentage change” -15.6% (Sprague Dawley rats; oral, 100 mg/kg once daily, 7 days; reference: vehicle).
With `CCCC(=O)OCSc1ccccc1C(=O)NCCn1ccc(=O)c2cc(C(F)(F)F)ccc21` the TC50 was 44.8 ± 10.4 µM (CEM-SS; cell viability, XTT; RPMI with 10% FBS; 6 days).
`O=c1[nH]cnc2c1ncn2[C@@H]1O[C@H](CO)[C@@H](O)[C@H]1O`: “log2 fold change” -0.146 (binding, MIDAS equilibrium dialysis LC-MS; A2AR-BRIL thermostabilized; concentration not given; reference: no-protein control).
`CC(C)c1nc(N(C)S(C)(=O)=O)nc(-c2ccc(F)cc2)c1/C=C/[C@@H](O)C[C@@H](O)CC(=O)O` gave a Km of 23.7 µM (Solute carrier organic anion transporter family member 1B3 (SLCO1B3, Homo sapiens, UniProt Q9NPD5, S112A); substrate, uptake; HEK293-A stably expressing SLCO1B3; 2 min).
For `CCc1cc(/C(C)=N/OCc2ccc(C3CCCCC3)c(C(F)(F)F)c2)ccc1CN1CC(C(=O)O)C1`, the Ki,u was 0.26 µM (Cytochrome P450 2C9 (CYP2C9, Homo sapiens, UniProt P11712); time-dependent inhibition, inhibitor, refers to: 4'-hydroxydiclofenac; pooled human liver microsomes; added: diclofenac 10 µM).
With `CC[C@H](C)C(=O)N1CCC(NC(=O)Nc2ccc(OC(F)(F)F)c(F)c2)CC1` the percent recovery was 99% (Caco-2; Caco-2 permeability; 10 µM, 60 min, pH 7.4 apical, 7.4 basolateral, replicate 1, added: verapamil; basolateral to apical).
With `CCCC(=O)OCSc1ccccc1C(=O)NCCn1cc(C(=O)NCc2cccc(C)n2)c(=O)c2cc3c(cc21)OC(F)(F)O3` the TC50 was greater than 100 µM (human PBMCs, PHA-P-stimulated; XTT; 7 days, BCF01 line).
`O=C(Nc1nc2cccc(-c3ccc(CN4CCS(=O)(=O)CC4)cc3)n2n1)C1CC1` — result for “treatment-emergent adverse events”: 0% (refers to: cystitis; human rheumatoid arthritis patients; oral, 75 mg once daily, 4 weeks, regardless of relatedness).
`CC(C)n1c(/C=C/C(O)CC(O)CC(=O)O)c(-c2ccc(F)cc2)c2ccccc21` (stereo not drawn) gave a Vmax of 274 ± 5.73 pmol/mg protein/min (Solute carrier organic anion transporter family member 1B3 (SLCO1B3, Homo sapiens, UniProt Q9NPD5, M233I/S112A); uptake, substrate; HEK293-A stably expressing SLCO1B3; 2 min).
`CCCC(=O)OCSc1ccccc1C(=O)NCCn1cc(C(=O)NCc2nc(-c3ccccn3)no2)c(=O)c2cc3c(cc21)OCO3` has a TC50 of greater than 100 µM (CEM-SS; cell viability, XTT; RPMI with 10% FBS; 6 days).
`CC[C@H]1[C@@H](O)[C@@H]2[C@H](CC[C@]3(C)[C@@H]([C@H](C)CCNC(=O)NS(=O)(=O)c4ccc(C(C)(C)C)cc4)CC[C@@H]23)[C@@]2(C)CC[C@@H](O)C[C@@H]12` has a CL/F of 12.8 L/h (Cytochrome P450 3A4 (CYP3A4, Homo sapiens, UniProt P08684); human, plasma; mean, alone).
`CC(C)Nc1ccnc(Nc2cccc(-c3ccccn3)c2)n1` gave an efflux ratio of 2.66 (P-glycoprotein (human MDR1); MDR1-MDCKII; 10 µM, 1 h, pH 7.4; reference: B-A over A-B).
`COc1ccc2c(c1)CN(C(=O)CCN1CCC(Cc3ccccc3)CC1)CC[S@@+]2[O-]` gave a QT interval of 222 ± 3 ms (telemetry; conscious male beagle dogs; intravenous, 4 mg/kg, 24 h).
With `CN(C(=O)C(C)(C)c1cc(C(F)(F)F)cc(C(F)(F)F)c1)c1cnc(N2C[C@H]3COCCN3C[C@H]2CO)cc1-c1ccc(F)cc1[14CH3]` the fraction metabolized was roughly 88% (human hepatocytes; substrate; added: cobicistat 5 µM).
`Cc1c(-c2ccc(N3CCc4cccc(C(=O)Nc5nc6ccccc6s5)c4C3)nc2C(=O)O)cnn1CC12CC3(C)CC(C)(C1)CC(OCCNCC[C@H](O)CO)(C3)C2` — result for “systemic vascular resistance change”: -7% (anaesthetised male beagle dogs; intravenous infusion, 0.3 mg/kg/min, 90 min; reference: vehicle).
For `Cc1cn([C@H]2C[C@H](N=[N+]=[N-])[C@@H](CO)O2)c(=O)[nH]c1=O`, the TC50 was greater than 0.5 µM (CEM-SS; cell viability, XTT; added: glutathione 2 mM).
The plasma concentration of `CNCCOC12CC3(C)CC(C)(CC(Cn4ncc(-c5ccc(N6CCc7cccc(C(=O)Nc8nc9ccccc9s8)c7C6)nc5C(=O)O)c4C)(C3)C1)C2` is reported as 3.3 ± 0.4 ng/mL (anaesthetised male beagle dogs; intravenous bolus, 0.03 mg/kg, 30 min).
With `COc1ccc(-c2ccc(CNC(=O)c3cc(C(=O)NC(C)C)ccc3Cl)cc2)cn1` the viability was roughly 50% (Plasmodium falciparum; infected erythrocytes, 3D7A; 10 x IC50, 72 h, serum-containing medium).

Some of these lines once more:
For `Cc1cn([C@H]2C[C@H](N=[N+]=[N-])[C@@H](CO)O2)c(=O)[nH]c1=O`, the TC50 was greater than 0.5 µM (CEM-SS; cell viability, XTT; added: glutathione 2 mM).
`CCc1cc(C(=O)NC)c2nccc(N3CCc4c(cc(Cn5ccnc5)cc4-c4cn(C)nc4C(F)(F)F)C3=O)c2c1`: “reticulocyte percentage change” -15.6% (Sprague Dawley rats; oral, 100 mg/kg once daily, 7 days; reference: vehicle).
